Experimental data gathered from unrelated publications.
A part holds a random share of what one study measured. Several values in a cell are separate wells, animals, samples, runs or records.
Chain of UniProt Q9BUB5 (whole entry, looked up): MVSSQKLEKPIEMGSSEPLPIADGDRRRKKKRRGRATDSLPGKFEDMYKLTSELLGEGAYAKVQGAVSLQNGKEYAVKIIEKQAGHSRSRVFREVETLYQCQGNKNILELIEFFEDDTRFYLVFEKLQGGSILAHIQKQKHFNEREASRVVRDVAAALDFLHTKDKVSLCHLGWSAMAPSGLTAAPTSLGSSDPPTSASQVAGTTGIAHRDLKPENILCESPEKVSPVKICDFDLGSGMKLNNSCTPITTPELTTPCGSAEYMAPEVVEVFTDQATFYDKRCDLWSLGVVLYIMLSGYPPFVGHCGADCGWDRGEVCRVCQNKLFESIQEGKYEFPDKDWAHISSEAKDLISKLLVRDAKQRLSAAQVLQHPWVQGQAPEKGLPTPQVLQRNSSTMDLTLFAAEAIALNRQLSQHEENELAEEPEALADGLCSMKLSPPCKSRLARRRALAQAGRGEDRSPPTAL
Chain of UniProt Q13177 (whole entry, looked up): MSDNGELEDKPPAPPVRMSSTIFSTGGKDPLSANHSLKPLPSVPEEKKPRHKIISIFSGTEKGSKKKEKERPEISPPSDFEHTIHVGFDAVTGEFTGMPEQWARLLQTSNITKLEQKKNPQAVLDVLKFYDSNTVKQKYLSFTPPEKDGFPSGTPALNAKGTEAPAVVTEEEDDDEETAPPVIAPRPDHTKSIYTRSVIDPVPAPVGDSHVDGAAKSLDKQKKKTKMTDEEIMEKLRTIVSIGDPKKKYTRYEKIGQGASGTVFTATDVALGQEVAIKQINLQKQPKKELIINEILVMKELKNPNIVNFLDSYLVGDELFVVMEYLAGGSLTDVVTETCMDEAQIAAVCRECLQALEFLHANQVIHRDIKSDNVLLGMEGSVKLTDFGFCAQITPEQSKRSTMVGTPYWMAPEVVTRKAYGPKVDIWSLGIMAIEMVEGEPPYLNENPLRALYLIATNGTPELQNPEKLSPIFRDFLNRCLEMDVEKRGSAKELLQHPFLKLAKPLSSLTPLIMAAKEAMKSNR
Chain of UniProt P07949 (whole entry, looked up): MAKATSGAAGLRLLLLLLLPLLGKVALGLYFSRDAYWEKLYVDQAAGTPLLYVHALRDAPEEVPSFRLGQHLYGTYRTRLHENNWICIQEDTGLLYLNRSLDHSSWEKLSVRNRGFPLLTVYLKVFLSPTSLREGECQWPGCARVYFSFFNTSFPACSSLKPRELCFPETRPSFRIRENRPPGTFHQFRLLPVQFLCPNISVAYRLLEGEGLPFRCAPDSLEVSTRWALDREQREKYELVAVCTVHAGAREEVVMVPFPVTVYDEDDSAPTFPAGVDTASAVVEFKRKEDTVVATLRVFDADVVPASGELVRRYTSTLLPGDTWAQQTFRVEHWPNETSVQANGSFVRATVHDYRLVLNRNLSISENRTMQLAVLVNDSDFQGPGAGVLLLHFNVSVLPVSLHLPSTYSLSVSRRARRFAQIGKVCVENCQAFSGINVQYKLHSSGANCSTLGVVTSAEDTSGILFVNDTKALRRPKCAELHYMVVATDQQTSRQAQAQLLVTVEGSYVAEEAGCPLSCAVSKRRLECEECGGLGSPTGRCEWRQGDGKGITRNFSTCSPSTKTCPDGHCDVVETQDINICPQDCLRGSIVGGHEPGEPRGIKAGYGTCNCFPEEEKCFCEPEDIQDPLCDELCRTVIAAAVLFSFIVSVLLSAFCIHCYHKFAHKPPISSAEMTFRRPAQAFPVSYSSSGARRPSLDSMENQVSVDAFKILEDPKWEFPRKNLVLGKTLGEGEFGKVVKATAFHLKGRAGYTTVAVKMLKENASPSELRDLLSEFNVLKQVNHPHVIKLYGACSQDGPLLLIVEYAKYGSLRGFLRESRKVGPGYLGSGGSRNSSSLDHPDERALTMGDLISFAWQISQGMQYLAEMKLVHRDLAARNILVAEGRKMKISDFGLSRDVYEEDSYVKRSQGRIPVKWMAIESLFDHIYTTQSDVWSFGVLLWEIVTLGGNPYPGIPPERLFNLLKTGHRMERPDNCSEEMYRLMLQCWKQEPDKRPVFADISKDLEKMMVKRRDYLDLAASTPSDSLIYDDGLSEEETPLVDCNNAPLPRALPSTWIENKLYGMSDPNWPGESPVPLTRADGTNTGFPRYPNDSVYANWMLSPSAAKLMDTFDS
Chain of UniProt Q16513 (whole entry, looked up): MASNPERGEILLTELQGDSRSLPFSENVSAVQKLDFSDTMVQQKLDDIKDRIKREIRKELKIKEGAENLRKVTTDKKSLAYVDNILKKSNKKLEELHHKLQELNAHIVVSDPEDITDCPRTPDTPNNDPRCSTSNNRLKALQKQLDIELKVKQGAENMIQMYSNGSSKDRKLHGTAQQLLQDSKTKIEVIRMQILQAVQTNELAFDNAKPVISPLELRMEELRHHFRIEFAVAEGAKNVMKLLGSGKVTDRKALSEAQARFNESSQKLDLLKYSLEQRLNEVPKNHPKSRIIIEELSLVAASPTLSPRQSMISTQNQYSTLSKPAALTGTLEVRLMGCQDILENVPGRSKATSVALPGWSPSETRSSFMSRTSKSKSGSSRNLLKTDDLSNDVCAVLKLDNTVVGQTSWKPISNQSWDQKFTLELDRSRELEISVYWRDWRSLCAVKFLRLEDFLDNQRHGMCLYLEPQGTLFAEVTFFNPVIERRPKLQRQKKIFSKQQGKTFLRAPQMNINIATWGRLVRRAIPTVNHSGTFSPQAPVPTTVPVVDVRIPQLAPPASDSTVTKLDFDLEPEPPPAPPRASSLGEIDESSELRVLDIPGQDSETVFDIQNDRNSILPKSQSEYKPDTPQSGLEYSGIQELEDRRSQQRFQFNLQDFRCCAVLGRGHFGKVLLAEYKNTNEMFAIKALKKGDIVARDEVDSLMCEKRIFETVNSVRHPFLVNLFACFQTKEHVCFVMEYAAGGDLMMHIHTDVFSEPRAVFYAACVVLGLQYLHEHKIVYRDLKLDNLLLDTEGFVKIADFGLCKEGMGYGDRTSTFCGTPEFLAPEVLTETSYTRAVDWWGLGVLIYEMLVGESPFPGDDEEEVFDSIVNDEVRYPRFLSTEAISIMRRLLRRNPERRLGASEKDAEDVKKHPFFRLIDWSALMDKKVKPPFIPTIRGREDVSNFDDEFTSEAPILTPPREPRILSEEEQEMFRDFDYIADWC
Chain of UniProt P54646 (whole entry, looked up): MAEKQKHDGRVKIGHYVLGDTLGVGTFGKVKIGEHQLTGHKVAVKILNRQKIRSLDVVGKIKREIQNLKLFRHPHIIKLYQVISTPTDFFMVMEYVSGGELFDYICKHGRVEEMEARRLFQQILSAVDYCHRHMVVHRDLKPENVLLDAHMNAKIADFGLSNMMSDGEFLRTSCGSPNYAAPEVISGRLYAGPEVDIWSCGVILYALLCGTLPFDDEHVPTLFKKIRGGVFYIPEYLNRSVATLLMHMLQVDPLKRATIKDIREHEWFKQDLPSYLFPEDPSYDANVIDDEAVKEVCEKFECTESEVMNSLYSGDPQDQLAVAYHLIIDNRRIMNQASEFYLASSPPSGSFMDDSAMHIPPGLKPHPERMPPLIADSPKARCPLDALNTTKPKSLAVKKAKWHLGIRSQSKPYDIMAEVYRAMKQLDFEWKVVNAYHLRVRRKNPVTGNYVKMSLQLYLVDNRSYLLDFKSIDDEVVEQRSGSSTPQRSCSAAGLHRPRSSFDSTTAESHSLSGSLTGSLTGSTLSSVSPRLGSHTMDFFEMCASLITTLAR
Chain of UniProt Q9HBH9 (whole entry, looked up): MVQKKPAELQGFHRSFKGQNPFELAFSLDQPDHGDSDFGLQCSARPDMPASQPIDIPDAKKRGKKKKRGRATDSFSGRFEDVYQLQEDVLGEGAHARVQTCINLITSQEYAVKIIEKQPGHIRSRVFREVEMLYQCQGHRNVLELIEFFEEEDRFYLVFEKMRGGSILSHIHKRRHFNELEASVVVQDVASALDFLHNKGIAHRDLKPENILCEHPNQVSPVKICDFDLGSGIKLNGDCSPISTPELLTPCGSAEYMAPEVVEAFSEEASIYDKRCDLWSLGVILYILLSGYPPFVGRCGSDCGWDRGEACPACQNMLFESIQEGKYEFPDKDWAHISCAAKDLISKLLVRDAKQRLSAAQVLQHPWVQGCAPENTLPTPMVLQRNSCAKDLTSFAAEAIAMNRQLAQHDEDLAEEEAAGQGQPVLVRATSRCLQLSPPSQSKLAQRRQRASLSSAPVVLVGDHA
Chain of UniProt Q15759 (whole entry, looked up): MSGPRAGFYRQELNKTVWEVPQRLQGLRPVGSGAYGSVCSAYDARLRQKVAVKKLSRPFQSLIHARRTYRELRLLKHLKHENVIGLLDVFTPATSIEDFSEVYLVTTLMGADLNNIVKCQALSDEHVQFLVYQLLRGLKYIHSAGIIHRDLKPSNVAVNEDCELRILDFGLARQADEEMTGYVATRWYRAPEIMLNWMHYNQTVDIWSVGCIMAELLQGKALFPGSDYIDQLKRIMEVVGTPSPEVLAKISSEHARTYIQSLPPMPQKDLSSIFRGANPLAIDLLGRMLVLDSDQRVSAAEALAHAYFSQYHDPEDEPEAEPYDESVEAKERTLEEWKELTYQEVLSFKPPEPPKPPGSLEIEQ

Series 1
Structure (SMILES): CC[C@@]1(c2cccc(-c3c(F)cncc3OC)c2)C2=C(Nc3n[nH]cc31)[C@H](F)C(C)(C)CC2=O (single isomer, unassigned)
Tested at: 1 µM
Measurement: remaining binding
target = MAP4K3 (Homo sapiens, UniProt Q8IVH8); assay = kinase binding, KINOMEscan; how to read = relative to: DMSO control; result = 100%
target = RIOK3 (Homo sapiens, UniProt O14730); assay = binding, competition with immobilised ligand; result = 70%
target = MAP3K20 (Homo sapiens, UniProt Q9NYL2); assay = kinase binding, KINOMEscan; how to read = relative to: DMSO control; result = 100%
target = MAPK11 (Homo sapiens, UniProt Q15759); assay = binding, competition with immobilised ligand; result = 79%
target = PAK2 (Homo sapiens, UniProt Q13177); assay = kinase binding, KINOMEscan; how to read = relative to: DMSO control; result = 79%
target = CLK4 (Homo sapiens, UniProt Q9HAZ1); assay = binding, competition with immobilised ligand; result = 99%
target = HIPK4 (Homo sapiens, UniProt Q8NE63); assay = binding, competition with immobilised ligand; result = 74%
target = PKN2 (Homo sapiens, UniProt Q16513); assay = kinase binding, KINOMEscan; how to read = relative to: DMSO control; result = 66%
target = PIK3CG (Homo sapiens, UniProt P48736); assay = kinase binding, KINOMEscan; how to read = relative to: DMSO control; result = 70%
target = PIK3C2G (Homo sapiens, UniProt O75747); assay = binding, competition with immobilised ligand; result = 88%
target = MAP3K7 (Homo sapiens, UniProt O43318); assay = binding, competition with immobilised ligand; result = 31%
target = FGFR4 (Homo sapiens, UniProt P22455); assay = binding, competition with immobilised ligand; result = 100%

Series 2
SMILES: Cc1ccc(O)c(C)c1-c1cnc2[nH]c(-c3cnc(N4CCC5(CC4)CC(N4CCN(c6ccc(NC7CCC(=O)NC7=O)cc6F)CC4)CO5)nc3)cc2c1C#N (centres unmarked)
Target: Membrane-associated tyrosine- and threonine-specific cdc2-inhibitory kinase (PKMYT1, Homo sapiens, UniProt Q99640)
Chain of UniProt Q99640 (whole entry, looked up): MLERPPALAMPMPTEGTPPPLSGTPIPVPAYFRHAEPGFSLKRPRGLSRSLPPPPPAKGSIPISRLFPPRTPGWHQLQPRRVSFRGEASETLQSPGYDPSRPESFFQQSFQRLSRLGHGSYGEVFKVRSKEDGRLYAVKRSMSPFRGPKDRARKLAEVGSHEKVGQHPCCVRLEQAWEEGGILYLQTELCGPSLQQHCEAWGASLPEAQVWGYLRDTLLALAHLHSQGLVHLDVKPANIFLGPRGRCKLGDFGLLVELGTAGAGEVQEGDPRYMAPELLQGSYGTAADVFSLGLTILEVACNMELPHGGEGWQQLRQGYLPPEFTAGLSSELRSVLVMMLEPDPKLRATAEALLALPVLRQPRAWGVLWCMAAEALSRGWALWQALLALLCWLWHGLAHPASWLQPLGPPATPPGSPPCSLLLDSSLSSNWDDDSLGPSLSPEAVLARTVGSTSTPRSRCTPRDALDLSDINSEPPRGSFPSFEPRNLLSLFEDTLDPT
Measurement: degradation
system = MDA-MB-157; setting = 12.35 nM; result = 68.1%
system = MDA-MB-157; setting = 1000 nM; result = 53.5%
system = HuCCT-1; setting = 0.46 nM; result = 28.1%
system = HuCCT-1; setting = 4.12 nM; result = 66.8%
system = HCC1599; setting = 111.11 nM; result = 75.2%
system = HuCCT-1; setting = 333.33 nM; result = 37.4%
system = MDA-MB-157; setting = 0.0169 nM; result = 2.3%
system = HuCCT-1; setting = 0.0169 nM; result = 5.9%

Series 3
Compound: CN(C1COC1)C(C)(C)/C=C(\C#N)C(=O)N1CCC[C@H]1Cn1nc(-c2ccc(Oc3ccccc3)cc2F)c2c(N)ncnc21
Effect on: kinase activity
Measurement: inhibition
target = PI4KB (Homo sapiens, UniProt Q9UBF8); setting = 0.1 µM; result = 6%
target = MKNK1 (Homo sapiens, UniProt Q9BUB5); setting = 0.1 µM; result = 4%
target = LCK (Homo sapiens, UniProt P06239); setting = 0.1 µM; result = 19%
target = HCK (Homo sapiens, UniProt P08631); setting = 0.1 µM; result = 17%
target = MKNK2 (Homo sapiens, UniProt Q9HBH9); setting = 0.1 µM; result = 5%
target = MERTK (Homo sapiens, UniProt Q12866); setting = 0.1 µM; result = 2%
target = PRKAA2 (Homo sapiens, UniProt P54646); setting = 1 µM; result = -7%
target = PRKD2 (Homo sapiens, UniProt Q9BZL6); setting = 1 µM; result = 8%
target = EPHB4 (Homo sapiens, UniProt P54760); setting = 1 µM; result = -3%
target = PAK5 (Homo sapiens, UniProt Q9P286); setting = 1 µM; result = -8%
target = PDGFRB (Homo sapiens, UniProt P09619); setting = 0.1 µM; result = -4%
target = RET (Homo sapiens, UniProt P07949); setting = 1 µM; result = 42%
target = DYRK3 (Homo sapiens, UniProt O43781); setting = 0.1 µM; result = 2%
target = EIF2AK3 (Homo sapiens, UniProt Q9NZJ5); setting = 0.1 µM; result = -9%
target = EPHA4 (Homo sapiens, UniProt P54764); setting = 1 µM; result = -1%

Series 4
Compound: CCN1CCN(Cc2ccc(COc3c(-c4c(C)c(F)cc5[nH]ncc45)c(C4CC4)cc4c(N5C[C@@H]6C[C@H]5CN6)nc(OC5CCOCC5)nc34)cc2)C(=O)C1
Target: GTPase KRas, GDP-bound (KRAS, Homo sapiens, UniProt P01116, G12D)
Measurement: Kd
assay = binder, multi-cycle SPR; setting = binary, without VCB; result = 0.631 nM and 3.53 nM and 0.964 nM and 0.565 nM and 1.21 nM
assay = SPR; setting = binary without VCB; result = 1.1 nM
assay = SPR, multi-cycle; system = immobilized KRAS G12D; setting = binary, geometric mean; result = 1.08 nM

Repeated from above (series 3):
target = DYRK3 (Homo sapiens, UniProt O43781); setting = 0.1 µM; result = 2%
target = EIF2AK3 (Homo sapiens, UniProt Q9NZJ5); setting = 0.1 µM; result = -9%
